Experimental data gathered from unrelated publications.
Lines come from different studies, so protocols differ. “And” joins repeats or separate records; there may be more than shown. ± gives the spread as reported.
OPRM1 C348A/C353A: Mu-type opioid receptor (OPRM1, Homo sapiens, UniProt P35372, C348A/C353A)
UniProt P35372, sequence (whole entry, unmodified, looked up): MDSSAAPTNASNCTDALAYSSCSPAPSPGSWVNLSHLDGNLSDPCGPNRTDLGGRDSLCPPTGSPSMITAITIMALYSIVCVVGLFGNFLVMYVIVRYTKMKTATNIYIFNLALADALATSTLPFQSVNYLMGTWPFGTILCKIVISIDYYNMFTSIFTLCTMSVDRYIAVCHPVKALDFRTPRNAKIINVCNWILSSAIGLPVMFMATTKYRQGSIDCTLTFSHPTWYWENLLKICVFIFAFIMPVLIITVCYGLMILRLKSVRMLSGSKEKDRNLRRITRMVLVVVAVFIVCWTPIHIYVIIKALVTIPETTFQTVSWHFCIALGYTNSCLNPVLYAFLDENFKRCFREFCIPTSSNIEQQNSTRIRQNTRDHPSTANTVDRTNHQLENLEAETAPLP
UniProt P32300, sequence (whole entry, looked up): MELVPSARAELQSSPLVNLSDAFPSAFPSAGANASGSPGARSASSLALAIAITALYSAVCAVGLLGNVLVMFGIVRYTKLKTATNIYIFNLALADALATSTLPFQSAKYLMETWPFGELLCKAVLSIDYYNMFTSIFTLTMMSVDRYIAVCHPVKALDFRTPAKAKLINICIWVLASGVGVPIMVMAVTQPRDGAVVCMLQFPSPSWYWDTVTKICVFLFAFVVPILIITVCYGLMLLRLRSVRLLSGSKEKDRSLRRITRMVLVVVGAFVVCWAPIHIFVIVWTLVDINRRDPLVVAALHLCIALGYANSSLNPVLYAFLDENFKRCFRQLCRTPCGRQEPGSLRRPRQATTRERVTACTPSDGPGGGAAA
UniProt P41143, sequence (whole entry, looked up): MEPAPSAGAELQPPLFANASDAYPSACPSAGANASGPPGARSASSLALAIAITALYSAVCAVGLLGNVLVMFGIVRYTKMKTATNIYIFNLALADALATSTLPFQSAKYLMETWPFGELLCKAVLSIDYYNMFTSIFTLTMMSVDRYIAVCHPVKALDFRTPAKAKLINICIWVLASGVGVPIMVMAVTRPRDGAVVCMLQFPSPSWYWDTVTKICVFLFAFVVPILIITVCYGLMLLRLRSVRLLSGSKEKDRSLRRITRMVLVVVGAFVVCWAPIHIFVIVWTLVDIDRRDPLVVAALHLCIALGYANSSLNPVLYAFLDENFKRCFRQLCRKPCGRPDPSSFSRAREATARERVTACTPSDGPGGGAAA

Compound	target	assay	test system	conditions	scale	quantity	result
CC[C@H](C)[C@H](NC(=O)[C@H](CCCNC(=N)N)NC(=O)[C@H](CCCNC(=N)N)NC(=O)[C@H](CC(C)C)NC(=O)[C@H](Cc1ccccc1)NC(=O)CNC(=O)CNC(=O)[C@@H](N)Cc1ccc(O)cc1)C(=O)N[C@@H](CCCNC(=N)N)C(=O)N1CCC[C@H]1C(=O)N[C@@H](CCCCN)C(=O)N[C@@H](CC(C)C)C(=O)N[C@@H](CCCCN)C(=O)O	Mu-type opioid receptor (OPRM1, Homo sapiens, UniProt P35372)	agonist, cAMP GloSensor				maximal cAMP inhibition	68.8% and 64.3% and 65.5%
CC[C@H](C)[C@H](NC(=O)[C@H](CCCNC(=N)N)NC(=O)[C@H](CCCNC(=N)N)NC(=O)[C@H](CC(C)C)NC(=O)[C@H](Cc1ccccc1)NC(=O)CNC(=O)CNC(=O)[C@@H](N)Cc1ccc(O)cc1)C(=O)N[C@@H](CCCNC(=N)N)C(=O)N1CCC[C@H]1C(=O)N[C@@H](CCCCN)C(=O)N[C@@H](CC(C)C)C(=O)N[C@@H](CCCCN)C(=O)N[C@@H](Cc1c[nH]c2ccccc12)C(=O)N[C@@H](CC(=O)O)C(=O)N[C@@H](CC(N)=O)C(=O)N[C@@H](CCC(N)=O)C(=O)O	OPRM1 C348A/C353A			concentration not given	baseline: human MOR	binding affinity change	no effect
CC(C)C[C@H](NC(=O)[C@H](CCCCN)NC(=O)[C@H](CCCN=C(N)N)NC(=O)[C@H](C)NC(=O)[C@H](CO)NC(=O)[C@H](CCCCN)NC(=O)[C@H](CCCN=C(N)N)NC(=O)[C@H](C)NC(=O)CNC(=O)[C@@H](NC(=O)[C@H](Cc1ccccc1)NC(=O)CNC(=O)CNC(=O)[C@@H](N)Cc1ccccc1)[C@@H](C)O)C(=O)N[C@@H](C)C(=O)N[C@@H](CC(N)=O)C(=O)N[C@@H](CCC(N)=O)C(=O)O	Delta-type opioid receptor (OPRD1, Homo sapiens, UniProt P41143)	agonist				EC50	> 10 µM
CSCC[C@H](NC(=O)[C@H](Cc1ccccc1)NC(=O)CNC(=O)CNC(=O)[C@@H](N)Cc1ccc(O)cc1)C(=O)O	OPRM1 C348A/C353A			concentration not given	baseline: human MOR	binding affinity change	no effect
CSCC[C@H](NC(=O)[C@H](Cc1ccccc1)NC(=O)CNC(=O)CNC(=O)[C@@H](N)Cc1ccc(O)cc1)C(=O)O	Delta-type opioid receptor (Oprd1, Mus musculus, UniProt P32300)	agonist	HEK293			Emax	49 ± 6%
